Assay results from different studies.
Lines come from different studies, so protocols differ. Several values in a cell are separate wells, animals, samples, runs or records. ± gives the spread as reported.

SMILES | target | assay | system | setting | how to read | endpoint | result
O=C(Nc1cc(OCCN2CCCC2)c2ccccc2n1)c1cc(Cl)cc(C(=O)Nc2cc(OCCN3CCCC3)c3ccccc3n2)n1 | K-ras G-quadruplex DNA | FRET melting |  | 1 µM, pH 7.4, together with: 60 mM potassium |  | ΔTm | 12.2 ± 0.6 K
c1coc(-c2n[nH]cc2-c2ccnc3ccccc23)c1 | CMK2 (Candida albicans) | kinase binding, MIB/MS competition | Candida albicans lysate | 10 µM | reference: DMSO | log2 fold change | 0.13
CC(=O)ON=C1C=CC(=C(C#N)c2ccccc2)C=C1 | Leishmania donovani TLK | enzyme activity, inhibitor, ADP-Glo |  | 2 µM, about MIC/10, together with: ATP 10 µM |  | remaining activity | 101%
CC(C)c1noc2ncc(C(=O)c3ccccc3O)cc12 | Kv2.1 potassium channel | ion current, inhibitor, whole-cell patch clamp |  | 10 µM |  | inhibition | 0.69% and 2.08% and 2.83% and 4.37% and 5.15%
NCCOc1cc(C(=O)Nc2cc(OCCN)c3ccccc3n2)nc(C(=O)Nc2cc(OCCN)c3ccccc3n2)c1 | K-ras G-quadruplex DNA | FRET melting |  | 1 µM, pH 7.4, together with: 60 mM potassium |  | ΔTm | 20.2 ± 0.8 K
COc1cnc(Nc2cccc(S(N)(=O)=O)c2)nc1N1CCN(c2ccccc2)C(=O)C1 | human FLT3 ITD | binding, KINOMEscan |  | 1000 nM | lower = stronger binding | percent of control | 91%
CCN(CC)CCNC(=O)c1c(C)[nH]c(/C=C2\C(=O)Nc3ccc(F)cc32)c1C | JNK1α1 (human) | kinase activity, inhibitor |  | 0.3 µM |  | inhibition | 0%
Cc1ncsc1-c1ccc([C@H](CC(=O)NCCOCCOCCOCCOCCOCCC(=O)N2CCC(Nc3cc(C(=O)NC[C@H](O)CN4CCc5ccccc5C4)ncn3)CC2)NC(=O)[C@@H]2C[C@@H](O)CN2C(=O)[C@@H](NC(=O)C2(F)CC2)C(C)(C)C)cc1 | human MEP50 | degrader, Western blot | MDA-MB-468 | 2 µM |  | time to degradation | ≤ 12 h
COc1cc(C(=O)Nc2cc(OC)c3ccccc3n2)nc(C(=O)Nc2cc(OC)c3ccccc3n2)c1 | K-ras G-quadruplex DNA | FRET melting |  | 1 µM, pH 7.4, together with: 60 mM potassium |  | ΔTm | 2.3 ± 0.3 K
COc1ccc(F)cc1C(=O)NCc1ccc(-c2nn([C@@H](C)C(F)(F)F)c(N)c2C(N)=O)cc1 | MEK1/MEK2 human | probe binding, competitive chemoproteomics | human PBMCs | 0.01 µM |  | inhibition | 0.2%
COc1ccc(C[C@H]2CO[C@H](c3ccc(OC)c(OC)c3)[C@H]2COC(=O)C=C(C)C)cc1OC | NF-κB | reporter gene | HEK293/NF-κB-luc | 4 h, together with: TNFα 2 ng/mL |  | IC50 | 5.3 µM
CC(Nc1nc(N2CCCC2)nc2ccccc12)c1ccccc1 (centres unmarked) | transportin-1/2 | FUS nuclear import, high content imaging | HeLa Kyoto reporter | 0.32 µM, 2 h |  | cells with nuclear reporter | 96.3%
C[C@@H]1CCN(c2nccc(-c3cnn4ncccc34)n2)C1 | human FLT3 ITD | KINOMEscan binding |  | 1000 nM |  | percent of control | 100%
CNC(=O)c1ccccc1Nc1cc(Nc2ccc(N3CCOCC3)cc2OC)ncc1C(F)(F)F | RSK1 | KINOMEscan |  | 1 µM | reference: control | remaining binding | < 10%
CC(=O)c1nn(CC(=O)N2C[C@H](F)C[C@H]2C(=O)Nc2cccc(Br)n2)c2ccc(-c3cnc(C)nc3)cc12 | trypsin (human) | enzyme activity | human pancreas | 10 µM |  | inhibition | 0.1%
CNC(=O)c1cc(Oc2ccc(NC(=O)Nc3ccc(Cl)c(C(F)(F)F)c3)cc2)ccn1 | JNK1α1 (human) | kinase activity, inhibitor |  | 0.3 µM |  | inhibition | -7%
NCCOc1cc(NC(=O)c2cc(OCc3ccc(F)cc3)cc(C(=O)Nc3cc(OCCN)c4ccccc4n3)n2)nc2ccccc12 | K-ras G-quadruplex DNA | FRET melting |  | 1 µM, pH 7.4, together with: 60 mM potassium |  | ΔTm | 10.7 ± 0.5 K
COc1cccc(CNC(=O)C#Cc2cn(Cc3ccc(C(=O)O)cc3)c(=O)[nH]c2=O)c1 | MMP-2 | inhibitor, colorimetric |  | 20 µM |  | remaining MMP-2 activity | 76 ± 21%
C/C=C(/C)C(=O)OC[C@H]1[C@@H](Cc2ccc(C(F)(F)F)cc2)CO[C@@H]1c1ccccc1 | NF-κB | reporter gene | HEK293/NF-κB-luc | 4 h, together with: TNFα 2 ng/mL |  | IC50 | ≥ 20 µM
OC[C@H]1O[C@@H](Oc2cc3c4c(c2)[C@@H]([C@@H]2c5cc(O)cc6c5[C@@H](c5cc(O)cc(O)c5[C@H]2c2ccc(O)cc2)[C@H](c2ccc(O)cc2)O6)[C@H](c2ccc(O)cc2)c2c(O)cc(O)cc2[C@H]4[C@H](c2ccc(O)cc2)O3)[C@H](O)[C@@H](O)[C@@H]1O | human pancreatic and salivary alpha-amylase | inhibitor |  | concentration not given | reference: (−)-hopeaphenol | decrease in inhibitory capacity | ~50%
CC(C)C[C@H](NC(=O)[C@@H](CCCCNC(=O)CCCCCN1C(=CC=CC=CC2=[N+](C)c3ccc(S(=O)(=O)O)cc3C2(C)C)C(C)(C)c2cc(S(=O)(=O)[O-])ccc21)NC(=O)[C@H](Cc1ccc(O)cc1)NC(=O)[C@H](CO)NC(=O)[C@H](Cc1c[nH]c2ccccc12)NC(=O)[C@H](Cc1c[nH]cn1)NC(=O)[C@@H]1CCC(=O)N1)C(=O)N[C@@H](CCCNC(=N)N)C(=O)N1CCC[C@H]1C(=O)NCC(N)=O | GnRH receptor (rat) | agonist, Western blot |  | 10 nM, 5 min | reference: basal | maximal ERK1/2 phosphorylation | 17 ± 6.7 fold
CCNC(=O)/C=C/c1cccc(Br)c1 | endogenous neutral amino acid transporters, Chinese hamster | radioactive uptake | CHO-BC cells | 1 µM, together with: 150 µM L-[14C]leucine, Na+ |  | L-leucine uptake | 43.5 nmol/6 min/mg protein and 44.7 nmol/6 min/mg protein and 46.2 nmol/6 min/mg protein
CC[C@@H]1[C@H](F)C(=O)N[C@@H]1COc1nccc2cc(C(N)=O)c(OC)cc12 | CK1 delta and epsilon | ATP-site probe binding, inhibitor, ActivX ATP probe profiling | THP-1 cell lysate | 0.2 mM, probe site Lys2 |  | inhibition | 53%
COc1c(O)cc2oc3cc(O)c(CC=C(C)C)c(O)c3c(=O)c2c1CC=C(C)C | MyBP-C and MYH |  | iPSC-derived cardiomyocytes (human) |  | reference: plate | normalized MyBP-C/MYH ratio | 0.9%
CN(C)CCOc1cc(NC(=O)c2cc(Cl)cc(C(=O)Nc3cc(OCCN(C)C)c4ccccc4n3)n2)nc2ccccc12 | K-ras G-quadruplex DNA | FRET melting |  | 1 µM, pH 7.4, together with: 60 mM potassium |  | ΔTm | 10.3 ± 0.5 K
Oc1ccccc1-c1n[nH]cc1-c1ccnc2ccccc12 | ENV7 (Candida albicans) | kinase binding, MIB/MS competition | Candida albicans lysate | 1 µM | reference: DMSO | log2 fold change | 0.05
O=C(Nc1cc(OCCN2CCCC2)c2ccccc2n1)c1cc(OCCN2CCCC2)cc(C(=O)Nc2cc(OCCN3CCCC3)c3ccccc3n2)n1 | K-ras G-quadruplex DNA | FRET melting |  | 1 µM, pH 7.4, together with: 60 mM potassium |  | ΔTm | 25.7 ± 0.7 K
CN(C)c1ccc(/C=C2\C(=O)Nc3ccccc32)cc1 | MYC | oncogenic transformation, inhibitor | chicken embryo fibroblasts expressing MYC | 5 µM | reference: untreated | focus formation | < 3%
Cl.NCCC[C@H](N)C(=O)O | MyBP-C and MYH |  | iPSC-derived cardiomyocytes (human) | concentration not given | reference: plate controls (SD units) | MyBP-C/MYH ratio | 14.2
